Results of several laboratories.
Each numbered part is a random draw from the data of one study; scales do not carry over between parts. ± gives the spread as reported. ≈ marks a conversion by molar mass, not a printed value.
Sequence of UniProt P34913 (whole entry, looked up): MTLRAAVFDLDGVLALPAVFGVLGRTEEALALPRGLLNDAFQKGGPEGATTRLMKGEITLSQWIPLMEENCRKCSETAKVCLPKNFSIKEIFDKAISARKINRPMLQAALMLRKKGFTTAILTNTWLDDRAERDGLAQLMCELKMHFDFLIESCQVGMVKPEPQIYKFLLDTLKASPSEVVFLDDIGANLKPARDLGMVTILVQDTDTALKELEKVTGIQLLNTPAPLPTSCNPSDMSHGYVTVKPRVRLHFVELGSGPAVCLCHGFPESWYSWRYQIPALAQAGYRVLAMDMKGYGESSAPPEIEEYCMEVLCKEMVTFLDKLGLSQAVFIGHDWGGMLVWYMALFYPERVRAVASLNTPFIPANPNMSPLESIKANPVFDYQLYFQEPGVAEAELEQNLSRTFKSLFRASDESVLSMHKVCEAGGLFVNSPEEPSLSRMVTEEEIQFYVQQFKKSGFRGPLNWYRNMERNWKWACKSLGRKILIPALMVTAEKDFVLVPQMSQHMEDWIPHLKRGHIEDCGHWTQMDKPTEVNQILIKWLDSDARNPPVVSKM
Sequence of UniProt Q86U86 (whole entry, unmodified, looked up): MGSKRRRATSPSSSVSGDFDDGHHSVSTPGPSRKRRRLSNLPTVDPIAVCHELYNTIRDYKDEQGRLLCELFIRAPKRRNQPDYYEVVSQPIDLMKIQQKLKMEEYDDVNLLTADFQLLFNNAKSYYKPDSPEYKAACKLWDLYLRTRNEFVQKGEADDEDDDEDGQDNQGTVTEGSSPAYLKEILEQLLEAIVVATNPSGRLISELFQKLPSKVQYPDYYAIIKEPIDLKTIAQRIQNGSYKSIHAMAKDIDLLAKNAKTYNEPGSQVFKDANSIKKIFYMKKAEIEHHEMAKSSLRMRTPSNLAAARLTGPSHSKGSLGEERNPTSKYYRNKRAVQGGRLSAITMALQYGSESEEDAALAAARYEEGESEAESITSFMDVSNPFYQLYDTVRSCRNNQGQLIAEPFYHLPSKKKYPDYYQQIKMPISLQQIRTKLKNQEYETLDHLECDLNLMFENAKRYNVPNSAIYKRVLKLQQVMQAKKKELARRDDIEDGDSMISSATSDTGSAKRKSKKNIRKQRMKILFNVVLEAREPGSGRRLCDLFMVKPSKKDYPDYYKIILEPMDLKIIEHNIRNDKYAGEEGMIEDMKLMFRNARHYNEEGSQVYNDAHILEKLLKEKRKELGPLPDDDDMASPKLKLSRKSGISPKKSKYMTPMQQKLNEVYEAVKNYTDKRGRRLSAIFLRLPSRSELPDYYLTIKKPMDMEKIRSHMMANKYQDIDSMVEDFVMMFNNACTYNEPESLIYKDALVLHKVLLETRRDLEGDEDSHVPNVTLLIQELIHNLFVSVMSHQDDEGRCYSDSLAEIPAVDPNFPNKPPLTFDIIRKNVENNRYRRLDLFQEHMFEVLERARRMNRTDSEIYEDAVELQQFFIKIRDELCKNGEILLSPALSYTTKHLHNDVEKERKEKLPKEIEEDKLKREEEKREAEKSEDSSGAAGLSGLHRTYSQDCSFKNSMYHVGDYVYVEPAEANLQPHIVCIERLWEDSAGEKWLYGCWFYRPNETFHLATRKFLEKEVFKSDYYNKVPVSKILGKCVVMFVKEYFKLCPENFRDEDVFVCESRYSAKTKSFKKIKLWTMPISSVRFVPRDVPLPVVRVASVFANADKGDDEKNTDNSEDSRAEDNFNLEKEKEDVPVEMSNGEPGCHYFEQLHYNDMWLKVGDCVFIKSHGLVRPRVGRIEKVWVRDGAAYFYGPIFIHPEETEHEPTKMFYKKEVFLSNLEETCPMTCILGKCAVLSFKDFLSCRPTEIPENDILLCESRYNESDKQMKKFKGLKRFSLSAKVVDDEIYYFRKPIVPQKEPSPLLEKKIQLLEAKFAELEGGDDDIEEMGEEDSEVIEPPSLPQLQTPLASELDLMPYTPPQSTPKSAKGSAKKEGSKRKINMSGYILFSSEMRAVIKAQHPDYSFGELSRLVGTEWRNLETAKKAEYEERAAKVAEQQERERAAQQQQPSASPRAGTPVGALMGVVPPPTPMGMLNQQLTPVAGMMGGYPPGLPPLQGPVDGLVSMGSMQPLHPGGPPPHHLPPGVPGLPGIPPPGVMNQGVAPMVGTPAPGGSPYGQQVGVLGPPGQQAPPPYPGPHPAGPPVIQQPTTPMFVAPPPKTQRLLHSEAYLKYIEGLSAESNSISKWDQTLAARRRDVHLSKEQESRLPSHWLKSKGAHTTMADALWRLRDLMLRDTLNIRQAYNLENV

Sample 1
Compound: Cc1cc(OCc2nnc(SC3CCCC3)n2-c2cccnc2)ccc1-c1ccc(S(C)(=O)=O)cc1
For MDA-MB-468: GI50 read 20.4 nM.
For OVCAR-3: GI50 read 1360 nM.
The GI50 was 1310 nM (MDA-MB-231).
It gave 1440 nM for GI50 (KM12).
For SF-295: GI50 read 156 nM.

Further values, each from its own experiment
`C#Cc1cccc(Nc2ncnc3cc(OCCOC)c(OCCOC)cc23)c1` gave a viability of 3.83% (PC-3; MTT; 25 µg/mL, RPMI medium with 2% serum).
`O=C(Nc1ccc(OC(F)(F)F)c(F)c1)NC1CCN(c2c(NS(=O)(=O)Cc3ccccc3)c(=O)c2=O)CC1` has an IC50 of 3.9 ± 0.4 nM (EPHX2 (Homo sapiens, UniProt P34913)).
The CLint of `N#Cc1ccc(-c2csc(CNC(=O)C34CC(CN(C(=O)COCCF)C3)C4)n2)cc1` is reported as under 3 µL/min/mg (human, both sexes, liver microsomes; 0.5 µM).
`O=C(Nc1ccc(-c2cnc3ccccc3c2)cc1)C1CCN(Cc2ccccc2)CC1` gave a solubility of 63 to 125 µM (≈ 26.6 to 52.7 µg/mL) (sodium phosphate buffer, 1% DMSO; pH 7.4).
The ΔTm of `CC[C@@H]1C(=O)N(C)c2cnc(Nc3ccc(C(=O)NC4CCN(C)CC4)cc3OC)nc2N1C1CCCC1` is reported as -0.41 ± 0.16 °C (Protein polybromo-1, BD4 (PBRM1, Homo sapiens, UniProt Q86U86); thermal stabilisation, thermal shift; 10 µM).

A few entries again (further values, each from its own experiment):
`O=C(Nc1ccc(OC(F)(F)F)c(F)c1)NC1CCN(c2c(NS(=O)(=O)Cc3ccccc3)c(=O)c2=O)CC1` has an IC50 of 3.9 ± 0.4 nM (EPHX2 (Homo sapiens, UniProt P34913)).
